Measurements from different studies.
Lines come from different studies, so protocols differ. ± gives the spread as reported.

NC1(C(=O)N[C@@H](CCO)c2ccc(Cl)cc2)CCN(c2nc[nH]c3nccc2-3)CC1
AUC ratio (human, plasma; concentration not given, with: with or without enzalutamide; relative to: cycle 2 over cycle 0): 0.601

O=C(COc1ccc(Cl)cc1)NC12CC(c3nnc([C@H]4C[C@@H](OC(F)(F)F)C4)o3)(C1)C2
AUC (healthy human volunteers fasted, plasma; oral, 800 mg single dose, arithmetic mean): 776 µM·h

N#Cc1ccc(C(c2ccc(C#N)cc2)n2cncn2)cc1
AUC at steady state per dose (human patients, plasma; oral, 15 mg daily): 24.1 ± 3.71 µg·h/mL/mg

C[C@@H](Oc1ccc(S(C)(=O)=O)cc1C(=O)N1C[C@@H]2C[C@]2(c2cc(C(F)(F)F)on2)C1)C(F)(F)F
AUC increase (healthy human volunteers; oral, 10 mg single dose, with: Meal, high-fat, ~1000 kcal; relative to: fasted state): 14%

CC1(C)CC[C@]2(NC(=O)C(C)(F)F)CC[C@]3(C)[C@H](C(=O)C=C4[C@@]5(C)C=C(C#N)C(=O)C(C)(C)[C@@H]5CC[C@]43C)[C@@H]2C1
AUC extrapolated percentage (human, plasma; oral, 150 mg, administered alone): 3.2%

C=CC(=O)N1CCC[C@@H](n2c(=O)n(-c3ccc(Oc4ccccc4)cc3)c3c(N)nccc32)C1
AUC fed/fasted ratio (human; oral, 240 mg; relative to: fed over fasted): 1.72

COC(=O)N[C@H](C(=O)N1CCC[C@H]1c1ncc(-c2cc(F)c3c(c2)O[C@@H](c2cnc(C4CC4)s2)n2c-3cc3cc(-c4cnc([C@@H]5CCCN5C(=O)[C@@H](NC(=O)OC)C(C)C)[nH]4)ccc32)[nH]1)C(C)C
AUC increase (healthy adult humans; oral, dose not given; relative to: low-fat meal over fasted): ~25%

Nc1ccn([C@@H]2O[C@H](CO)[C@@H](O)C2(F)F)c(=O)n1
AUC extrapolated (human patients, plasma; intravenous, 800 mg/m2, mean, before paricalcitol): 0.35%

CC(C)(C#N)c1cc(Cn2cncn2)cc(C(C)(C)C#N)c1
AUC at steady state (human; 125 mg): 1030 ng·h/mL

C[C@@H](c1ccc2nccn2c1)n1nnc2ncc(-c3cnn(C)c3)nc21
AUC at steady state (human, plasma; oral, dose not given, cycle 2 day 1, multiple doses, all): 14900 ng·h/mL

N#Cc1cc(NC(=O)[C@H]2c3ccccc3C(=O)N(CC(F)(F)F)[C@@H]2c2cccnc2)ccc1F
AUC (human, plasma; oral, 600 mg, median): 25100 ng·h/mL

COc1ccc2nc([S@@+]([O-])Cc3ncc(CO)c(OC)c3C)[nH]c2c1
AUC ratio (human; concentration not given, mean over sessions; relative to: (R)-OH-omeprazole over compound): 7 fold

C=CC(=O)Nc1cc(Nc2nccc(-c3cn(C)c4ccccc34)n2)c(OC)cc1N(C)CCN(C)C
AUC at steady state (human patients, plasma; dose not given, Q2 exposure quartile, with chemotherapy): 8.95 to 11.6 µM·h

CC(C)(C(=O)N1CCOc2c(C#N)cncc2C1)C(F)F
AUC dose proportionality ratio (healthy humans, both sexes, plasma; oral, 40 mg single dose, 2-fold dose increase; relative to: 40 mg over 20 mg): 2.15

Cc1cc(-c2nccc3c2ccn3CC(=O)Nc2ccc(-c3cnccn3)cn2)ccn1
AUC (human, plasma; oral, 20 mg once daily, day 1, geometric mean): 1.63 µM·h

COC(=O)c1ccc2c(c1)NC(=O)/C2=C(\Nc1ccc(N(C)C(=O)CN2CCN(C)CC2)cc1)c1ccccc1
AUC extrapolated (healthy human, plasma; oral, 150 mg single dose): 20.3%

N#Cc1ccc(C(c2ccc(C#N)cc2)n2cncn2)cc1
AUC at steady state (human; 150 mg): 2710 ng·h/mL

COc1ccc2[nH]c([S@+]([O-])Cc3ncc(C)c(OC)c3C)nc2c1
AUC fold decrease (human male, dried plasma spots; dose not given, mean of (R)- and (S)-enantiomers, with: rifampicin pretreatment; relative to: control over induction): 10.7 fold

For quick reference, copied from above:
O=C(COc1ccc(Cl)cc1)NC12CC(c3nnc([C@H]4C[C@@H](OC(F)(F)F)C4)o3)(C1)C2
AUC (healthy human volunteers fasted, plasma; oral, 800 mg single dose, arithmetic mean): 776 µM·h
